# Experimental data pooled from the literature.
# A part holds a random share of what one study measured.

# Set 1 — method: RNA Bind-n-Seq; form: RNA; medium: in vitro; tested at: 365 nM; baseline: no-protein control; reading: higher = stronger binding
# Target: RNA binding protein fox-1 homolog 2, RRM domain, GST-SBP tag (RBFOX2, Homo sapiens, UniProt O43251-10, residues 100-194)
# Notes: natural RNA segment, single round, ends assumed
# All sequences stand within: GGGAGUUCUACAGUCCGACGAUC … UGGAAUUCUCGGGUGCCAA
# Residues (chain): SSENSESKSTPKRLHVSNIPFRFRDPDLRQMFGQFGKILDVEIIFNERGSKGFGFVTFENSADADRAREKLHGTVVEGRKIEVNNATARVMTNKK
Oligonucleotide,RBNS enrichment (R)
AUCUAUAUAUAGUGUUUCACAAAGCUUAGAUCUUUAACCUUGCAGCUGCCCCACAGUGCUUGACCUCUGAGUCAUUGGUUAUACAGUGUAGUCCCAAGCACAUAAACUAG,0.295
GGGAACAACUGAGCAUCAAAACCGGCUUUGCUUUACUUCCUGGCAGGCUGCAGCCAAGGGGACUGAGCAGCAGGCACCCAAUGCCACCAGCUCGUCUCUUCCUAGCAAGC,0.599
ACAAUGUGGAAAGCUGAUAUACCUGUGCAAAAUCUUUGCCUCUGUGCUGUCAGUGUGAUGUGCUUUCUGCAUGGUUAUAUACUACUAGUGAUUUUAUCAAAACUUCUAAA,0.42
AAACUGCCCCUUCCACUAGGACUGAGUCUGGGUGUGUGUGAGAGUGUGAGGGAACAUGCCCUGCCUUAGAGGGCUGCCACUGAAGCUGGGCCUCAUAUGUUCCAUGAGGA,0.719
AACUGUGACCUGAUCCCUACCCCACAUGCUGUCUCCUUUUCUUUGGGAGUUAGCAACAUUUGAGGAUGUUGUAGGUACUUUAUUACAUUUUUUUGUAGUUUAAAGAGCUU,0.213
GCCCACCUAGCUGGGUUUGGACCUGGAGUGCAGUGGCGUGAACCCUGGUCAGCACAGUCCCCAGCGGAGGCUCAUGGUGUCUCAUUAAACCAUCACAUACCAGUAACUCG,0.486
CUUCAGCCUUUCCAGACCACACACGAGACAUUAACCAUCCCAUGGAGAAGUUUACAUGGUGACUGUUCACCUGCAGUACUGUGGACUUUGAACAUUUUGUCCCCUUUCCA,0.456
GAUGCUGUGAACACCAGGACUUUAAUCUUAUGCUUAAAAUGCCAGAUGUUGUUCGGGGGACAACUUGUAUCUUUCUAGCAGCAGAUCUGUAGUUUGUAUAGCCUCAACAA,1.07
CCAGCGUGUGUAAAACAGAACAGUAACUCUAUGUGACCCCAGAUAACAUUUUGUAACAUUGUGCUUCCUUGUAGUUUGUAAUGUGAGUUCAAUCAGUAUUUAUGUUGAAA,2.05
GAGCCAGCAGGCCCCACUGUAUUAUGUAUAUAUUUUUCAAGGUCUGUUUUUCUAACUGAAAAGCUAAGGGCUUGAUUCCUAGCCCCGUUCUGUGGGGCACUGGGUGAUAC,0.375
UUCCCCCAUAAUGCCAGAAAUUGGCUUAAUGAUGCUUUCACUAAAUUCAUCAAAUAGAUUGCUCCUAAAUCCAAUUGUUAAAAUUGGAUCAGAAUAAUUAUCACAGGAAC,0.381
AGGAUUCAUGAUUUCUGAUACUGCUGAUCAAAAAUGCGCGCAAAUAAAGAAUGUUGGUCAAUACUGGUAUGAAGACUCUUGGCCUUUCAGAAUGAAACCCCAGAUUCCUG,1.88

# Set 2 — method: protein binding microarray; form: double-stranded DNA, one strand shown; medium: in vitro; tested at: not given; baseline: not given; reading: higher = stronger binding
# Target: Histone acetyltransferase KAT6A, winged helix 1, GST fusion (KAT6A, Homo sapiens, UniProt Q92794, residues 1-85)
# Notes: 8-mer, flanks averaged, mean of 2 arrays, mostly near background
# Residues (chain): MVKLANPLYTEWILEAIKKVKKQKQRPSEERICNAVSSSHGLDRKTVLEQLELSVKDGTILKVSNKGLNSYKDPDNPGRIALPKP
Oligonucleotide,E-score
CATTATAC,-0.00035
CGTAGGGC,0.213
CCCTGGTC,-0.0334
GCCCATTA,-0.0756
CAGACAAG,-0.146
CCCAAGGA,-0.0756
ACAAGGGT,-0.108
ATTGGAGG,-0.141
GCACTTCC,0.0375
ACGGTCTG,-0.002
ATTCTTAA,-0.0664
CGTATAAG,0.128
ACGGTCAA,0.228
AGGCTAGC,-0.103
CGAAAACG,0.11
CCCGGCAA,0.26
AAGCTTTA,-0.129
CACTCCAG,-0.0763
AATAGCAA,-0.227
AGTCAACA,-0.247

# Set 3 — method: RNA Bind-n-Seq; form: RNA; medium: in vitro; tested at: not given; baseline: input RNA pool; reading: higher = stronger binding
# Target: RING finger protein unkempt homolog, zinc fingers 1-6, GST-SBP tag (UNK, Homo sapiens, UniProt Q9C0B0, residues 30-357)
# Notes: RNA with constant flanks, human and mouse sites, ends assumed
# All sequences stand within: GGGAGUUCUACAGUCCGACGAUC … CAACAGAGGAUUGAGCAUCA
# Construct (chain): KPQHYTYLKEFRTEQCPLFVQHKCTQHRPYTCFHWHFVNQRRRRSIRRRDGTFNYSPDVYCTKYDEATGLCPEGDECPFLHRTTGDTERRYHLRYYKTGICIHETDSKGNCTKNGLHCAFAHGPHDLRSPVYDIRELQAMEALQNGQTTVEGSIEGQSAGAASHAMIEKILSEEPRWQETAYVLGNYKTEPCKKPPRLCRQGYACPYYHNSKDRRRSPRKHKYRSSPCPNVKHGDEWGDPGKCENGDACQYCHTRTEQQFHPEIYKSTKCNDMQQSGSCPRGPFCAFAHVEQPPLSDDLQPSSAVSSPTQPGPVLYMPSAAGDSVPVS
Oligonucleotide,bound/input enrichment [ratio]
CUCCCUGGAGGAGUCAAGGCCUUGAAGCUACCUAAUGAAGAGGCCACCACACCAUUAGACUUAGCUUUGCAAGGUGGACACUCCACACUGGUAGAAGACAUCACAAAUUUUCAGGGUAGC,0.61
GAGCAAAAGUUUAAAAUUUUGUGAAUUUAUUAAAGCUCCGUUUGUUGCUUUUUUCUGUUCUAGUUUAUACUUUUGUAUCAUAUUUUAGGAAAUUUUGCACUGGGUAUUUGAUGGCUCCUG,4.1
CCAGCAUAACUAUUGAGAAUAUUAGCACCAGGAACAUGUUCCACAGUAACAGCAGGAAAUAUAGCCGGAUCGCCAAGCUUUGUUGGAAGUACUUUAAAUGUACUCUGUUCUGGUAUUAUA,1.42
CUGGGGGCCGGGGCGGUGGCCUACGGCGUCCGCGAAUCCGUGUUCACCGUGGAAGGCGGUCAUAGAGCCAUCUUUUUUAAUCGUAUUGGUGGCGUGCAGCAGGACACGAUCCUGGCCGAA,0.138
AGGUGCAAAGAAAAAGACUUGGAUGAUACCUGCAUGCUGCAUAAGAAGUCAGAAAGCCCAUUUAGAGAAACAGAACCUCUGGUGUCACCACACCAAGAUAAACUCAUGUCUAUGCCAGUU,0.878
UGAAAAAGCCUUGAAUAUGCAUGCUGCUUUCAUUUUUAUAAACUUUUUAUUUUUUAACUAUAGCUUUAUUAGUAAUUCCAAAAUGCUGCAAUGUAGCUGAUUUCCUCACUCAGACAGCUG,56.3
ACAUGUUCCCAGCUGAGAGACUAUAUCACUCUUGGAGCGGAGGCCUUCUUAUUGAGGCUCUACAGGAAAACCUUUGAGAAGGAUAGCAAAGCUGAAGAAGUCUGGAUGAAAUUUAGGAAG,0.897
AACAAAAGUUGACCCAAAAAAUCGUACUGUGUAAUCUUGGCUGGCAAUAAAGUCAUCAUAAAGUUCACCUGAAAACUGAUGUUUGGACAGUUUGCAUAUAUGCCUGUAAUCCCAGGUACU,0.038
UACUGGAGUGGAUAUAUGUGUGUACCUGUGUGUGUUUGUAUAAAUAUAUGUGUAAUCCAAAAGUCAGUAAUGGUAAUUUAUUAAUGGUUAAACUAUAUAUGUUGUCUCAAUUUUACAGCC,1.4
CCUGAAGAAAACCCUGGGUCACCUUCUAGAGAAUCACCUCUUUCAGCACCUUCAGAUCAUUCUUAGGUCUAAGGUGUAACACCUUUGCAGUACGUCAUGGGUGAUCUAAUACUUCCCCUU,0.225
UCUCCAAACCAGUAUUAUUUCAAUUAUGGCACUUGGGAGUGGGGUGAGAGCUAAACAUUGCACAGGGAAAGAAAAAAAAUAACUGCACUGACUUUAUAUCUUUUGAAUAUAAUUACUGUG,0.718

# Set 4 — target: UBE2R2 UBC core domain (UniProt Q712K3); method: yeast two-hybrid; medium: yeast; notes: mostly zero background; baseline: not given; reading: higher = stronger interaction
# B1: ZMYND11 RING domain (UniProt Q15326); chain DEIDWETENHDWYCFECHLPGEVLICDLCFRVYHSKCLSDEFRLRDSSSPWQCPVCRSIKKKNTNKQEM
# B2: BFAR RING domain (UniProt Q9NZS9); chain GPQISVSEFSCHCCYDILVNPTTLNCGHSFCRHCLALWWASSKKTECPECREKWEGFPKVS
# B3: ZNRF4 RING domain (UniProt Q8WWF5); chain VRTFTWHNDLCAICLDEYEEGDQLKILPCSHTYHCKCIDPWFSQAPRRSCPVCKQSVAATEDSF
# B4: RNF182 RING domain (UniProt Q8N6D2); chain AESQASDELECKICYNRYNLKQRKPKVLECCHRVCAKCLYKIIDFGDSPQGVIVCPFCRFETCLPDDEV
# B5: MKRN3 RING domain (UniProt Q13064); chain FAVQRGMDKVCGICMEVVYEKANPNDRRFGILSNCNHSFCIRCIRRWRSARQFENRIVKSCPQCRVTSELVIPSE
# B6: RNF186 RING domain (UniProt Q9NXI6); chain HSGSTECDLECLVCREPYSCPRLPKLLACQHAFCAICLKLLLCVQDNTWSITCPLCRKVTAVPGGLI
# B7: RING1 RING domain (UniProt Q06587); chain SPRSLHSELMCPICLDMLKNTMTTKECLHRFCSDCIVTALRSGNKECPTCRKKLVSKRSLR
# B8: RNF103 RING domain (UniProt O00237); chain WPADMLHCTECVVCLENFENGCLLMGLPCGHVFHQNCIVMWLAGGRHCCPVCRWPSYKKKQPY
# B9: NFX1 RING domain (UniProt Q12986); chain IEQLTTEKYECMVCCELVRVTAPVWSCQSCYHVFHLNCIKKWARSPASQADGQSGWRCPACQNVSAHVPNTY
# B10: HLTF RING domain (UniProt Q14527); chain LILSSGSDEECAICLDSLTVPVITHCAHVFCKPCICQVIQNEQPHAKCPLCRNDIHEDNLLE
# B11: VPS8 RING domain (UniProt Q8N3P4); chain TRGLNPKQDYCSICLQQYKRRQEMADEIIVFSCGHLYHSFCLQNKECTVEFEGQTRWTCYKCSSSNKVGKLSE
# Construct (chain): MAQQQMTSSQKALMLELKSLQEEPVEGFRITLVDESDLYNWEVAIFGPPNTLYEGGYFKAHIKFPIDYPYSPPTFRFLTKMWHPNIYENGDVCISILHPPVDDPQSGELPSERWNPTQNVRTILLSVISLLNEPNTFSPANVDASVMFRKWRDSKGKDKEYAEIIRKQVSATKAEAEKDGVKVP
Sequence,lacZ reporter activity
B1 (ZMYND11 RING domain),0
B2 (BFAR RING domain),0
DDVLTKDAGECVICLEELLQGDTIARLPCLCIYHKSCIDSWFEVNRSCPEHPAD (ZNRF1 RING domain (UniProt Q8ND25)),0
B3 (ZNRF4 RING domain),0
B4 (RNF182 RING domain),0
B5 (MKRN3 RING domain),0
B6 (RNF186 RING domain),0
B7 (RING1 RING domain),0
B8 (RNF103 RING domain),0
B9 (NFX1 RING domain),0
B10 (HLTF RING domain),0
B11 (VPS8 RING domain),0
FDPPLESKYECPICLMALREAVQTPCGHRFCKACIIKSIRDAGHKCPVDNEILLENQLFP (TRAF6 RING domain (UniProt Q9Y4K3)),0
ASEEEFQFLRCQQCQAEAKCPKLLPCLHTLCSGCLEASGMQCPICQAPWPLGADTP (PML RING domain (UniProt P29590)),0
LVKDFNPYITCYICKGYLIKPTTVTECLHTFCKTCIVQHFEDSNDCPRCGNQVHETNPLE (PCGF5 RING domain (UniProt Q86SE9)),0
FAEQPSVKLCCQLCCSVFKDPVITTCGHTFCRRCALKSEKCPVDNVKLTVVVNNI (TRAF7 RING domain (UniProt Q6Q0C0)),0

# Repeated from above (set 4):
Sequence,lacZ reporter activity
B8 (RNF103 RING domain),0
LVKDFNPYITCYICKGYLIKPTTVTECLHTFCKTCIVQHFEDSNDCPRCGNQVHETNPLE (PCGF5 RING domain (UniProt Q86SE9)),0
DDVLTKDAGECVICLEELLQGDTIARLPCLCIYHKSCIDSWFEVNRSCPEHPAD (ZNRF1 RING domain (UniProt Q8ND25)),0
B9 (NFX1 RING domain),0
B10 (HLTF RING domain),0
B4 (RNF182 RING domain),0
